# Published values pooled from the literature.
# Each numbered part is a random draw from the data of one study; scales do not carry over between parts. “And” joins repeats or separate records; there may be more than shown.
# Sequence of UniProt P50406 (whole entry, looked up): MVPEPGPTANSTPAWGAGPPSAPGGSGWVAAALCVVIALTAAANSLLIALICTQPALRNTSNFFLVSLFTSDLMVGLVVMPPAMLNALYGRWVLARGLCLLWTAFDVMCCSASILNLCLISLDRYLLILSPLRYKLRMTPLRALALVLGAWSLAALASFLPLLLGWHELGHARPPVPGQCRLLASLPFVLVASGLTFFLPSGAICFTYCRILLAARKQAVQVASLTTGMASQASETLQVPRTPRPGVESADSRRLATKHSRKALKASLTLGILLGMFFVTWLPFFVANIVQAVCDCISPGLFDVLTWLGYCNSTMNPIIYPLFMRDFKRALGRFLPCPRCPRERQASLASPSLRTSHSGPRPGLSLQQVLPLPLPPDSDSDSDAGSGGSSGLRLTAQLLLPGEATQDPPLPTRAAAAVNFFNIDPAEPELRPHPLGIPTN
# Sequence of UniProt P25021 (whole entry, looked up): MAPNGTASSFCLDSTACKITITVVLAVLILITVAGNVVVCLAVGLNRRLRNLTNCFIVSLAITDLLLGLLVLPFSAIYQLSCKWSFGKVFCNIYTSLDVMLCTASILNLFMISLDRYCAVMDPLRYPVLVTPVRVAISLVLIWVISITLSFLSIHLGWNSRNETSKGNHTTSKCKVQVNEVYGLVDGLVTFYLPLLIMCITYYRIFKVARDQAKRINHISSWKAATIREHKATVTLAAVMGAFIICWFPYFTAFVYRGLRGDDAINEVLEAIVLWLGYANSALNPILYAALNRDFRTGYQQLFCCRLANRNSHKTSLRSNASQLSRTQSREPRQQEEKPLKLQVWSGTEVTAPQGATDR
# Sequence of UniProt P41145 (whole entry, looked up): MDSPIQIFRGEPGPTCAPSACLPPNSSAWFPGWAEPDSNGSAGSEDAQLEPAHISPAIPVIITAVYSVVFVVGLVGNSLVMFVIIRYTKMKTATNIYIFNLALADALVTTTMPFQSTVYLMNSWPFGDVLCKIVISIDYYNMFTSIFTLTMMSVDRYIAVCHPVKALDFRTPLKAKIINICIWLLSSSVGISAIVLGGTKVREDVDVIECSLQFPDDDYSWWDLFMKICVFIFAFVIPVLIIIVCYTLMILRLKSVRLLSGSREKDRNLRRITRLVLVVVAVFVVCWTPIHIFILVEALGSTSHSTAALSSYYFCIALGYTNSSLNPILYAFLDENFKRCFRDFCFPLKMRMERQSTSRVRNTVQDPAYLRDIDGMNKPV
# Sequence of UniProt P30872 (whole entry, looked up): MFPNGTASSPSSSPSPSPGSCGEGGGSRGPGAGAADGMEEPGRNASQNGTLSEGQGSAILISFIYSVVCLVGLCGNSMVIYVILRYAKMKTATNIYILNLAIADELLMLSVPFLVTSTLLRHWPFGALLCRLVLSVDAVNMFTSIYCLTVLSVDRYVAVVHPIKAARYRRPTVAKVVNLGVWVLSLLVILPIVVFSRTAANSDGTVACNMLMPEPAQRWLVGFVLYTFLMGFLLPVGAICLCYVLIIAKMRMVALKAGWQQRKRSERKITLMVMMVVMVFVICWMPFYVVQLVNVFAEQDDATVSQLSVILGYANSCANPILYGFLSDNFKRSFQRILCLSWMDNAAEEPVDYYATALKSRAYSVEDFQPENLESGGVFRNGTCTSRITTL
# Sequence of UniProt P47211 (whole entry, looked up): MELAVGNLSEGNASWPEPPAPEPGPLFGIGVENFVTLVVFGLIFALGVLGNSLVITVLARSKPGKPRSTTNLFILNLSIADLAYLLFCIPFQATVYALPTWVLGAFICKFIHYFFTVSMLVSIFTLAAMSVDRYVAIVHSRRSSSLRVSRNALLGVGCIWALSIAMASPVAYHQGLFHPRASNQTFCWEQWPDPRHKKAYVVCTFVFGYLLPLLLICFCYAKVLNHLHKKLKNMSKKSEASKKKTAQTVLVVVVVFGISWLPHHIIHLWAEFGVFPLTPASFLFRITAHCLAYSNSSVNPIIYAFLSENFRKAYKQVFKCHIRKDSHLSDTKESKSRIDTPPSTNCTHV
# Sequence of UniProt O14804 (whole entry, looked up): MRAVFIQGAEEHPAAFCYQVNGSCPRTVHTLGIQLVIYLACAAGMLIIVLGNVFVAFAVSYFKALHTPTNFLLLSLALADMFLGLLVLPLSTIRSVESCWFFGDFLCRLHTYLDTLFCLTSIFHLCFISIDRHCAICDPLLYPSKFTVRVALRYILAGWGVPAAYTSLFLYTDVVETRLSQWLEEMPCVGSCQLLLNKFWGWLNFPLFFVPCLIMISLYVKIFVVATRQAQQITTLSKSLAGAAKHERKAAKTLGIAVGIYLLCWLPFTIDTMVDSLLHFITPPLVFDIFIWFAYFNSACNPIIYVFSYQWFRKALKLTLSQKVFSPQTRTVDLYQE
# Sequence of UniProt O43603 (whole entry, looked up): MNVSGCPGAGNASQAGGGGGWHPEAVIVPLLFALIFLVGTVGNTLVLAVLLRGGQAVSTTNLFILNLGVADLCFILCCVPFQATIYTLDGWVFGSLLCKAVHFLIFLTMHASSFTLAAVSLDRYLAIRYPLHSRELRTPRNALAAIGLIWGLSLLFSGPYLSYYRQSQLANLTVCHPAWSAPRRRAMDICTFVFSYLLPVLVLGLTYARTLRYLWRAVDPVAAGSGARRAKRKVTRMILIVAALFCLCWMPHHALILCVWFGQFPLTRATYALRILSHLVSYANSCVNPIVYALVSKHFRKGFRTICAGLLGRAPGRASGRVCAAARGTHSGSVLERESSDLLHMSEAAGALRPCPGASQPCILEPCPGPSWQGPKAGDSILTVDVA
# Sequence of UniProt Q99500 (whole entry, looked up): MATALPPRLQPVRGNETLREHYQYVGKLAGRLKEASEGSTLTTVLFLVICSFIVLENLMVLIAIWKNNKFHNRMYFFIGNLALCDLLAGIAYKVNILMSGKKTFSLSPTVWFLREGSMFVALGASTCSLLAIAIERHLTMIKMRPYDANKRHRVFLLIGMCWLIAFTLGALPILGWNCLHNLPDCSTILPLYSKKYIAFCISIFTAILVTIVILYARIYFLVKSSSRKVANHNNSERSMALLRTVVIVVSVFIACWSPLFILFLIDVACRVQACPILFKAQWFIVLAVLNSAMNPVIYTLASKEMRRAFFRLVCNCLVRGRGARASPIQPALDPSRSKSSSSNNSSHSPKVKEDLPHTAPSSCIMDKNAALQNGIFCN
# Sequence of UniProt P22607 (whole entry, looked up): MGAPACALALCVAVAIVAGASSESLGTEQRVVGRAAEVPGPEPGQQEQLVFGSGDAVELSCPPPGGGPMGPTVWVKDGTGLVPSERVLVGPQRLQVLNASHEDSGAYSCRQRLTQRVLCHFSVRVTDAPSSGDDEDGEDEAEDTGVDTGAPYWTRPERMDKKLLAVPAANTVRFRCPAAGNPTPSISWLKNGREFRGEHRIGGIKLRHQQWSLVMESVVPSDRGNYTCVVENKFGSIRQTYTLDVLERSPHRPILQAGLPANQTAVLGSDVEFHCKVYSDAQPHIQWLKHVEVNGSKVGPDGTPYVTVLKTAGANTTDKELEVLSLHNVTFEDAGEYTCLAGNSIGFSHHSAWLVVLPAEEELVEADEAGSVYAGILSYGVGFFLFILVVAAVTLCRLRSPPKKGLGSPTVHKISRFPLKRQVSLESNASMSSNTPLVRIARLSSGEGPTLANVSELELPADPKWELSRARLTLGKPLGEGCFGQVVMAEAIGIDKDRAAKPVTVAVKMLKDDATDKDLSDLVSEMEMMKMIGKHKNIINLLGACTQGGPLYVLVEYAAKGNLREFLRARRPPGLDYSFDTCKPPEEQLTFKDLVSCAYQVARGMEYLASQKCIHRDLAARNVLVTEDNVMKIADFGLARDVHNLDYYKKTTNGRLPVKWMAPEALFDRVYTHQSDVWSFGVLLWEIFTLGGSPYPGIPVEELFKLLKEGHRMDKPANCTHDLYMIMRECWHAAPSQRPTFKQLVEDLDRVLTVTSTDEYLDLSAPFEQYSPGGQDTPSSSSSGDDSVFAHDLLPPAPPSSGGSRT

# Study 1 — organism: Sarcocystis neurona; observed: parasite growth; concentration: 10 µM; time: 96 h; notes: secondary screen
Compound,inhibition [%]
O=c1c(O[C@@H]2O[C@H](CO)[C@@H](O)[C@H](O)[C@H]2O)c(-c2ccc(O)c(O)c2)oc2cc(O)cc(O)c12,-12.1
Cn1nnc2c(C(N)=O)ncn2c1=O,-17.9
CN1[C@@H]2CC[C@H]1C[C@@H](OC(=O)C(CO)c1ccccc1)C2 (stereo partly shown),-25.7
CC1CNc2c(cccc2S(=O)(=O)N[C@@H](CCCNC(=N)N)C(=O)N2CC[C@@H](C)C[C@@H]2C(=O)O)C1 (stereo partly shown),-25.7
CC(C)[C@H]1CC[C@H](C(=O)N[C@H](Cc2ccccc2)C(=O)O)CC1,6.2
CC(C)NCC(O)c1ccc(NS(C)(=O)=O)cc1 (stereo not shown),-5.2
CC(=O)OCC[N+](C)(C)C,-14.2
CN(C)CC/C=C1/c2ccccc2COc2ccc(CC(=O)O)cc21,-17.7

# Study 2 — SMILES: NC(N)=NC(=O)c1nc(Cl)c(N2CCCCCC2)nc1N; observed: β-arrestin recruitment; mode: agonist; method: PRESTO-Tango; concentration: 10 µM; baseline: untreated
target,fold over basal
"SSTR1 (Homo sapiens, UniProt P30872)",1.01
"S1PR3 (Homo sapiens, UniProt Q99500)",0.7
"GALR1 (Homo sapiens, UniProt P47211)",0.82 fold
"HRH2 (Homo sapiens, UniProt P25021)",1.42 fold
"OPRK1 (Homo sapiens, UniProt P41145)",1.54 fold
"GALR2 (Homo sapiens, UniProt O43603)",0.58 fold
"HTR6 (Homo sapiens, UniProt P50406)",0.68
"TAAR5 (Homo sapiens, UniProt O14804)",1 fold

# Study 3 — cell line: mouse MPNST tumor cells; method: high-content immunofluorescence imaging; refers to: nuclear SOX9; concentration: 10 µM; time: 12 h; notes: mean of 2 replicates; baseline: DMSO control; reading: higher = more nuclear SOX9
SMILES,nuclear SOX9 intensity
CCOc1cccc(NC(=O)c2ccc(N3CCCC3)c(C(F)(F)F)c2)c1,113 % of DMSO
CC[C@H](C)C(=O)O[C@H]1CCC=C2C=C[C@H](C)[C@H](CC[C@@H]3C[C@@H](O)CC(=O)O3)[C@H]21,120 % of DMSO and 121 % of DMSO
CCC(CC)(CC(=O)Nc1cccc(/C=C/c2nc(C3CCC3)cs2)c1)C(=O)O,89.1 % of DMSO
CC(C)c1cnn2c(NCc3ccccc3)cc(NCCCCCCN)nc12,111 % of DMSO
CCOc1ccccc1OC(c1ccccc1)C1CNCCO1 (stereo not shown),99.5 % of DMSO and 95.9 % of DMSO
CN/C(=N\c1ccc(C2=NNC(=O)CC2C)cc1)NC#N (stereo not shown),100 % of DMSO
O=C(Nc1cc(C(F)(F)F)cc(C(F)(F)F)c1)c1cnc(Cl)nc1C(F)(F)F,106 % of DMSO
O=C(O)c1ccc(S(=O)(=O)NC2CCCCC2)cc1,97.4 % of DMSO

# Other studies, line by line
SMILES,target,observed,mode,concentration,baseline,endpoint,result
COc1ccc2c(c[n+](C)c3c4cc5c(cc4ccc23)OCO5)c1OC,"Fibroblast growth factor receptor 3 (FGFR3, Homo sapiens, UniProt P22607)",enzyme activity,inhibitor,0.5 µM,control,remaining activity,99.1%

# Repeated from above (study 2):
target,fold over basal
"GALR1 (Homo sapiens, UniProt P47211)",0.82 fold
"HRH2 (Homo sapiens, UniProt P25021)",1.42 fold
